Measurements of several laboratories.
A part holds a random share of what one study measured. Values joined by “and” are separate records of one study, mostly repeats; a detail may differ.

Block 1
Target: Replicase polyprotein 1ab, nsp13 helicase (rep, Severe acute respiratory syndrome coronavirus 2, UniProt P0DTD1)
Mode: inhibitor
Concentration: 20 µM
Compound	inhibition
CC(=O)N[C@@H](CSC/C=C(\C)CC/C=C(\C)CCC=C(C)C)C(=O)O	4.74%
COc1ccc2nc3c(c(N)c2c1)CCCC3	9.64%
O=C(O)Cc1cccc(OCCCN(Cc2cccc(C(F)(F)F)c2Cl)CC(c2ccccc2)c2ccccc2)c1	1.98%
COC(=O)N[C@H](C(=O)N1CCC[C@H]1c1ncc(-c2ccc(-c3ccc(-c4cnc([C@@H]5CCCN5C(=O)[C@@H](NC(=O)OC)C(C)C)[nH]4)cc3)cc2)[nH]1)C(C)C	3.21%
CCCCNNC(=O)c1ccc(Br)cc1	-0.9%
CCCCCCCCCCCCCCCc1cccc(OCC(=O)NCCO)c1	-1.81%
CCCCN(CC)c1c([N+](=O)[O-])cc(C(F)(F)F)cc1[N+](=O)[O-]	5.54%
CC(CC(c1ccccc1)c1ccccc1)NC(C)(C)C (stereo not shown)	-1.24%
O=S(=O)(c1ccccc1)c1cnc2c(N3CCNCC3)cccc2c1	-1.51%
c1ccc(OCc2ccc(CCCN3CCOCC3)cc2)cc1	2.2%
CS(=O)(=O)c1ccc(-c2cnc(NCc3ccco3)n3cnnc23)cc1	13.6%
CN(CCOc1ccc(CC2SC(=O)NC2=O)cc1)c1ccccn1 (stereo not shown)	4.99%
CC[C@H]1[C@@H](O)[C@@H]2[C@H](CC[C@]3(C)[C@@H]([C@H](C)CCC(=O)O)CC[C@@H]23)[C@@]2(C)CC[C@@H](O)C[C@@H]12	13.4% and 0.91%
OCC(O)CN1CCN(c2ccccc2)CC1 (stereo not shown)	0.68%
OCCNC1CCCc2c1[nH]c1ccc(-c3ccccc3)cc21 (stereo not shown)	-0.6%
O=C1CC2(CCCC2)CC(=O)N1CCCCNCC1COc2ccccc2O1 (stereo not shown)	3.89%
NC(=O)c1cc[n+](CC2=C(C(=O)O)N3C(=O)[C@@H](NC(=O)[C@@H](c4ccccc4)S(=O)(=O)[O-])[C@H]3SC2)cc1	43.4%
Cc1ccc(-c2cc(C(F)(F)F)nn2-c2ccc(S(N)(=O)=O)cc2)cc1	10.9%
O=C(NC1CCOCC1)c1ccc(-c2cc(-c3c[nH]nc3-c3ccccn3)ccn2)cc1	-6.03%
O=C(O)[C@H]1CN(C/C=C/P(=O)(O)O)CCN1	0.65%
C#C[C@]1(O)CC[C@H]2[C@@H]3CCc4cc(OC)ccc4[C@H]3CC[C@@]21C	7.64%
CCc1cccc(CC)c1NC(=O)N1Cc2[nH]nc(NC(=O)c3ccc(N4CCN(C)CC4)cc3)c2C1	-1.86%
CCOC(=O)c1c(C)[nH]c2ccc3c(c12)CN1CCc2cc(OC)ccc2C1O3 (stereo not shown)	15.1%
O=C(O)CN1CCN(CC(=O)O)CCN(CC(=O)O)CCN(CC(=O)O)CC1	0.7%

Block 2
Cell line: HEK-293T/ACE2
Concentration: 10 µM
Time: 16 h
Relative to: vehicle
Compound	viability [%]
CN1C(C(=O)Nc2ccccn2)=C(O)c2ccccc2S1(=O)=O	100
O=C(O)c1ccccc1O	99.5
Oc1ncnc2[nH]ncc12	101

Block 3
Target: Interferon regulatory factor 7, full length, phosphomimetic (IRF7, Homo sapiens, UniProt Q92985, residues 1-503, S471D/S472D/S475D/S476D/S477D/S483D/S484D/S487D)
Method: protein-binding microarray
Form: double-stranded DNA, one strand shown
Medium: in vitro
Concentration: 2200 nM top
Notes: 60-bp whole probe
Together with: salmon DNA 0.4 mg/ml
Relative to: random background probes
Direction: higher = stronger binding
Constant ends, left off below: GCCTAGCAC … GTCTTGATTCGCTTGACGCTGCTG
Residues (chain): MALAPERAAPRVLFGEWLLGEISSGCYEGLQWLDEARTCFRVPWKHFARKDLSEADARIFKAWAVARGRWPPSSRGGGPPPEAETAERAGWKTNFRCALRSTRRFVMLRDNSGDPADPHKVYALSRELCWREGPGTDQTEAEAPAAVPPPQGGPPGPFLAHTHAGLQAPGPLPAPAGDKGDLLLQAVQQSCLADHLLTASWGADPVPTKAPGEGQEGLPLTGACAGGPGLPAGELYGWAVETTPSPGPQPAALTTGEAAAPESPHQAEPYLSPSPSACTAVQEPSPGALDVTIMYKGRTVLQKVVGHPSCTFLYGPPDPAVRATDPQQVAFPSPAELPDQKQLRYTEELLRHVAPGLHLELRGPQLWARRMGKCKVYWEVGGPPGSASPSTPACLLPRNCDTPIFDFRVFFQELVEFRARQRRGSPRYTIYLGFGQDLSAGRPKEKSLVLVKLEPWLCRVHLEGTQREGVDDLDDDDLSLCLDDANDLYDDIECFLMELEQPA
Oligonucleotide	fitted relative affinity [z-score]
TTAGATTTCGTGTATCGATTAGTGCTA	1.85
GACGATTTCAGACCGGAGACGTGCTAG	0.0561
TTAAGACTGGACACTGGGTTAGTGCTA	-0.777
GACGGTCTCGGACTTGGGACGTGCTAG	-0.477
GACGGTATCCTTCTCCTGATGTGCTAG	1.06
TTAGGTATCCTTCTCCTTCAGTGCTAG	1.41
GACGGTTTCGTTTTCCTGACGTGCTAG	11.7
TCATCTTTCCACTTTCTACTGTGCTAG	4.57

Block 4
Target: Ras GTPase-activating protein-binding protein 1, full length (G3BP1, Homo sapiens, UniProt Q13283)
Chain of UniProt Q13283 (whole entry, looked up): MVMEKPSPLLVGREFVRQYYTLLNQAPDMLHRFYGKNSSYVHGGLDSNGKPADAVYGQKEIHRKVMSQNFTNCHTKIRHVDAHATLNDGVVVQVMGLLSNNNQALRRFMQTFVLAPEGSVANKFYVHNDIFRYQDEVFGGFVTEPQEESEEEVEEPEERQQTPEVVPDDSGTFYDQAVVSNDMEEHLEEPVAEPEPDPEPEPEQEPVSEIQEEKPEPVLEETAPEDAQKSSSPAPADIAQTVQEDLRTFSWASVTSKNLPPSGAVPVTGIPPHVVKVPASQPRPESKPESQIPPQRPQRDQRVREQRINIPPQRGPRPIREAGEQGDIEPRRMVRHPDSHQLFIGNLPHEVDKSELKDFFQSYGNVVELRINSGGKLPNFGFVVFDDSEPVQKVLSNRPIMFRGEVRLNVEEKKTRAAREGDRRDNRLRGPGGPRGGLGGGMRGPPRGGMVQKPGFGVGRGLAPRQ
Method: RNA Bind-n-Seq
Form: RNA
Medium: in vitro
Concentration: 200 nM
Notes: whole 134-nt RNA, ends assumed
Together with: 150 mM LiCl
Relative to: input library
Direction: higher = stronger binding
Library: 7-deaza-guanosine replaces G
Constant ends, left off below: GGGAGUUCUACAGUCCGACGAUC … UGGAAUUCUCGGGUGUCAAGG
Oligonucleotide	log2 enrichment
CCUGUGCUACACAUCGUAUGUACCGAAUCGGCCCCCCCGGGCCCCCCCGGGCCCCCCCGGGAAAGUAUUAUGUUACGCCGUUCGGAUCUG	-0.577
AAGUCCUGUGCUACACAUCGUAUGUACCGAAUCGGGUUUGGGAAAAAGGGUUUGGGAAAGUAUUAUGUUACGCCGUUCGGAUCUGCACUU	-1.86
UGGGAGGUGGAUUUUGUUUAUUUUUUUAGCUCAUUUCCAGGGGUGGGAAUUUUUCUUUAAUAUGUGUCAUGAAUAAAGUUGUUUUUGAAA	-0.88
AGUCCUGUGCUACACAUCGUAUGUACCGAAUCGGGUUUUUGGGUUUGGGUUUUUGGGAAAGUAUUAUGUUACGCCGUUCGGAUCUGCACU	-0.773
UCCUGUGCUACACAUCGUAUGUACCGAAUCAAACCCAAACCCCCCCAAACCCCCCCAAAAAAGUAUUAUGUUACGCCGUUCGGAUCUGCA	0.132
CCUGUGCUACACAUCGUAUGUACCGAAUCGGGGUUUUUUUGGGGAAAAAGGGGAAAGGGGAAAGUAUUAUGUUACGCCGUUCGGAUCUGC	-0.307
ACCAUGCAGGUGGGCAUCUUUGGGAAGUGGGGCAAGGGGGGGAUAGGGAGGGGGCUAACACUUUGGGAACAGGUGGUCCCAGGUCGUUUC	0.369
UGGGAGGUGGAUUUUGUUUAUUUUUUUAGCUCAUUUCCAGGGGUGGGAAUUCUUUUUUAAUAUGUGUCAUGAAUAAAGUUGUUUUUGAAA	-0.0589

Block 5
Target: Sal-like protein 4, full length isoform A (SALL4, Homo sapiens, UniProt Q9UJQ4, residues 1-1053)
Chain of UniProt Q9UJQ4 (whole entry, looked up): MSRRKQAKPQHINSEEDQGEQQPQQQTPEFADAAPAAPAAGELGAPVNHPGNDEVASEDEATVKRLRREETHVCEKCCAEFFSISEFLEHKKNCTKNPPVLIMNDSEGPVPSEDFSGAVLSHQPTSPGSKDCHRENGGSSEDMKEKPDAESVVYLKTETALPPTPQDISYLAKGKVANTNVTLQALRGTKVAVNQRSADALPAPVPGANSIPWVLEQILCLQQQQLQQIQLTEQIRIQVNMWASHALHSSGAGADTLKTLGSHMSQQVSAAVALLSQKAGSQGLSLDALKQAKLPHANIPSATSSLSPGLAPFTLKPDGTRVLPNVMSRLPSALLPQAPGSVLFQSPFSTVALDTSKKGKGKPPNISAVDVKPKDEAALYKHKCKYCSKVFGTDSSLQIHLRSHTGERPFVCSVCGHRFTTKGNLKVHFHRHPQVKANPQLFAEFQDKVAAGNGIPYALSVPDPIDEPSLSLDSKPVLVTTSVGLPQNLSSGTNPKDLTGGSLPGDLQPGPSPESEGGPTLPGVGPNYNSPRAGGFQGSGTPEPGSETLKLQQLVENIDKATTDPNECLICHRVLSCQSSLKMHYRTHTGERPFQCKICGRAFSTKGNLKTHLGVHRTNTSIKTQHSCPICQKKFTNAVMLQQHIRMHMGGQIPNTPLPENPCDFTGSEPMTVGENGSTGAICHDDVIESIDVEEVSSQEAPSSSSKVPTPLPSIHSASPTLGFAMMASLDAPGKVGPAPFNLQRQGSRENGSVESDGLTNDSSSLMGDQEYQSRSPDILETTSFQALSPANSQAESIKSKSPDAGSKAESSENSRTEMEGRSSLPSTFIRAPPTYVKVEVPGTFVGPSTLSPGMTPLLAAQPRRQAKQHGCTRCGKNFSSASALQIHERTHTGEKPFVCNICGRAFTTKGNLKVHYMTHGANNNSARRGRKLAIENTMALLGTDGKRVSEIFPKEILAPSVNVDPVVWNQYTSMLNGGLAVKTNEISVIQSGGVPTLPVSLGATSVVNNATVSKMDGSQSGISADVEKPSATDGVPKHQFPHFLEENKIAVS
Method: universal PBM
Form: double-stranded DNA, one strand shown
Medium: in vitro
Concentration: 600 nM
Notes: 8-mer, flanks averaged, mean of replicates
Direction: higher = stronger binding
Oligonucleotide	E-score
CCCGACCA	-0.177
AAAGAGAG	-0.0501
AACACTTC	0.14
AGTTCATG	-0.0762
ACATACGA	0.139
AATTATGA	0.447
AGTTGTAT	0.194
GAGTCTAC	0.0346

Further values, each from its own experiment
SMILES	organism	assay	system	setting	endpoint	result
CNS(=O)(=O)C[C@H]1CC[C@H](N(C)c2ncnc3[nH]ccc23)CC1	SARS-CoV-2	cytopathic effect	Vero E6	10 µM	inhibition	-1.3%

Some of these lines once more (block 1):
Compound	inhibition
OCC(O)CN1CCN(c2ccccc2)CC1 (stereo not shown)	0.68%
OCCNC1CCCc2c1[nH]c1ccc(-c3ccccc3)cc21 (stereo not shown)	-0.6%
O=C1CC2(CCCC2)CC(=O)N1CCCCNCC1COc2ccccc2O1 (stereo not shown)	3.89%
